Measured values of several laboratories.
Every numbered part comes from another study and shows a few of its results, in no order.

Block 1 — method: protein-binding microarray; molecule type: double-stranded DNA, one strand shown; matrix: in vitro; concentration: 250 nM; notes: 60-bp whole probe; with: salmon DNA 0.4 mg/ml; reference: random background probes; reading: higher = stronger binding; quantity: log fluorescence; all sequences stand within: GCCTAGCAC … GTCTTGATTCGCTTGACGCTGCTG
Target: Interferon regulatory factor 5, full length, phosphomimetic (IRF5, Homo sapiens, UniProt Q13568-2, residues 1-514, K96S/S451D/S453D/S456D/S462D)
Strand = TCACATCTGCAACATCTAACTGTGCTA; value = 0.337 z-score
Strand = CCAGGGACAAAGCGGTGCGAGTGCTAG; value = -0.769 z-score
Strand = GACGGTATCGACACTCGGGACGTGCTA; value = 1.55 z-score
Strand = GACGATCTGAGTTTCGAGACGTGCTAG; value = 3.84 z-score
Strand = TTAGAACTGAGTAGCGATTAGTGCTAG; value = 0.287 z-score
Strand = GACGATCTCAGTTTTGAGACGTGCTAG; value = 0.111 z-score
Strand = ATAGATCTCAGTTTCGATTAGTGCTAG; value = 9.09 z-score
Strand = GACGGTTTCCTAATCCTGACGTGCTAG; value = 0.285 z-score
Strand = GACGGTCGCGGACTGGGGACGTGCTAG; value = -0.659 z-score
Strand = CTCCCTCTGTAAGTCAGCACGTGCTAG; value = -0.327 z-score
Strand = TCAGCTTTCTTTATGTAACTGTGCTAG; value = 1.38 z-score
Strand = TTAGGTTTCGGTTTCGATTAGTGCTAG; value = 11.8 z-score
Strand = TCATCTTTTCATTACTGACTGTGCTAG; value = 1.39 z-score
Strand = TTAGGTATCCTTATCCTCTAGTGCTAG; value = -0.106 z-score
Strand = TTGGGTATCGACTTTCGGTTAGTGCTA; value = 9.64 z-score
Strand = TTAGAACTGAGTATGGATTAGTGCTAG; value = 0.0931 z-score
Strand = GTCCACTCCAGACCGTTTGCGTGCTAG; value = -0.347 z-score
Strand = GTGCCTTTATATACCTGAATGTGCTAG; value = -0.00967 z-score
Strand = GACGAATTCAGACTGGAGACGTGCTAG; value = -0.119 z-score
Strand = GACGATCTCGGTATCGAGACGTGCTAG; value = 1.17 z-score
Strand = GAAGGTTTCGGTCTCGGGACGTGCTAG; value = 9.24 z-score
Strand = GACAGTATCGACTATCGGGACGTGCTA; value = 6.09 z-score
Strand = CTAGTTAAGGTACACCAGCAGTGCTAG; value = -0.227 z-score
Strand = GACGGACTGGGTTTCGGGCCGTGCTAG; value = 1.61 z-score
Strand = GACGATATCAGTCTCGAGAGGTGCTAG; value = 1.03 z-score

Block 2 — method: universal PBM; molecule type: double-stranded DNA, one strand shown; matrix: in vitro; concentration: 600 nM; reading: higher = stronger binding; quantity: E-score
Target: Sal-like protein 4, full length isoform A (SALL4, Homo sapiens, UniProt Q9UJQ4, residues 1-1053)
UniProt Q9UJQ4, sequence (whole entry, looked up): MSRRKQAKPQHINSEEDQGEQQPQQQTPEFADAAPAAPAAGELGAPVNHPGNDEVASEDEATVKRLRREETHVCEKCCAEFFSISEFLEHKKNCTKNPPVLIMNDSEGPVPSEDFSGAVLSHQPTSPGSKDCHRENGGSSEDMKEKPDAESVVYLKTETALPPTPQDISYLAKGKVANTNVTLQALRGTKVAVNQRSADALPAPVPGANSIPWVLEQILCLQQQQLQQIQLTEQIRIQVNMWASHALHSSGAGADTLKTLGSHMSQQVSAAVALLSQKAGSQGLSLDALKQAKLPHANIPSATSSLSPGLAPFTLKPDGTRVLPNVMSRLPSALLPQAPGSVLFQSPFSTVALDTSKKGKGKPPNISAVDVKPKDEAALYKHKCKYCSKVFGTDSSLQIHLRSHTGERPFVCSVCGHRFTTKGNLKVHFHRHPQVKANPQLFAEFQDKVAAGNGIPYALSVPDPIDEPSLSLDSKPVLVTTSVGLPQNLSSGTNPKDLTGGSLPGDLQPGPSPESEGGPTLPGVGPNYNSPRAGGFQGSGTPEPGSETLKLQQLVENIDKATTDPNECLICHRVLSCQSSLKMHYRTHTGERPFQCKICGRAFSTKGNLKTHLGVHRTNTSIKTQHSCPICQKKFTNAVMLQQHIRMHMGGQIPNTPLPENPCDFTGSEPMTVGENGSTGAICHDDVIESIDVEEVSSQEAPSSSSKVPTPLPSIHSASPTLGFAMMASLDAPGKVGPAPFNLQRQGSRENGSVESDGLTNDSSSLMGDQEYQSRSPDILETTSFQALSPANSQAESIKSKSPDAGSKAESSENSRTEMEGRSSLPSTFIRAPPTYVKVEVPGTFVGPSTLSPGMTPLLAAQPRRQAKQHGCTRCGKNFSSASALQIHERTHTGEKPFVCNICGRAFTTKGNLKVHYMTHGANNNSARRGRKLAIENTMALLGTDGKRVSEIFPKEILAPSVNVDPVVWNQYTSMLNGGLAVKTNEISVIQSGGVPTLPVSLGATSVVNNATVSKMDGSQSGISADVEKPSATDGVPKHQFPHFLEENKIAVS
Notes: 8-mer, flanks averaged, mean of replicates
Strand = ATGCATGG; value = 0.116
Strand = GGGGAGAA; value = -0.211
Strand = ATTCCCGC; value = 0.0236
Strand = CCTAACCC; value = -0.272
Strand = CGCTTCTC; value = -0.26
Strand = CAGGCACA; value = -0.135
Strand = ACAGGCAA; value = 0.0791
Strand = GTAGCACA; value = -0.0429
Strand = AGCTTCTA; value = 0.0356
Strand = ACAGGAGG; value = -0.235
Strand = CGACGCGC; value = -0.222
Strand = GTTTCCAA; value = 0.0755
Strand = ATATAGCG; value = 0.236
Strand = GATTACTA; value = 0.206
Strand = CGGAATCA; value = 0.0318
Strand = AGACTCAT; value = 0.123
Strand = AGTGTGTA; value = 0.0808
Strand = CCTGACCC; value = -0.238
Strand = ACCGAGAG; value = -0.154
Strand = TCATGCGA; value = -0.00234
Strand = AAACGGCC; value = -0.171

Block 3 — method: RNA Bind-n-Seq; molecule type: RNA; matrix: in vitro; concentration: 365 nM; reference: no-protein control; reading: higher = stronger binding; quantity: RBNS enrichment (R)
Target: RNA binding protein fox-1 homolog 2, RRM domain, GST-SBP tag (RBFOX2, Homo sapiens, UniProt O43251-10, residues 100-194)
Notes: natural RNA segment, single round, ends assumed
All sequences stand within: GGGAGUUCUACAGUCCGACGAUC … UGGAAUUCUCGGGUGCCAA
Target sequence (chain): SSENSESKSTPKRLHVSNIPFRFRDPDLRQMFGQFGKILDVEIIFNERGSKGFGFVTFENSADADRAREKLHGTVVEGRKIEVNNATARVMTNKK
Strand = GGUGGUCAACUACCUGUGCAAUAUUUAUGUCUUGAAAACCAGAUCUGAGUAUGCAUUGAACAGUGGGGAUAUUAUAAACAGAAGCGCCUCUCUGAAGAACCCGGUUUCCG; value = 0.178
Strand = GUGUUCUGGAUAUGAAUGUAUGUACACUGAUGCUGCCCCCCUCUGUACAGCGGCUUGGCCUCUCACGAUCCAUUGUAUGGCUUUAUAAAUGAUAAAGUUACACAAACCCA; value = 0.703
Strand = GCCAGGUGCCUUAACUCUGGGACGUGUACAGACGUCCUCCCUCCUCUUUGGGAACUGUCCUCUUGGUGGAUCCGGGUUCCUGACCCCACCUCCCCCCAGUUGCCCCUCAG; value = 0.369
Strand = CUUCUUCAUGAUGUUGCCCCUAAAUUUUGCACACUAUAUUCUUGUAUAUUAUUUCAAAUAAAUGGAAAAAAAAGUUGCUUAUCUCUGACGUCUACUGAUUGAUUGAUUGA; value = 0.372
Strand = GUGCCAUCCCCACCUUCACCUCGGAGGGAUGGAGAAAGAAGUGGAGACAGUCCUUUCCCACCAUUCCUGCCUUUAAGCCAAAGAAACAAGCUGUGCAGGCAUGGUCCCUU; value = 0.28
Strand = UUUUUUUAAUCUUCCUCUGUUAGCCCACAGGACAUGUUUUGGGGAAAAUGAUACUUGUAAAUCUUCUAUUUAACCAUUUGUAAAAUCUAAAUCAUACCCCACUCCCCACU; value = 0.48
Strand = GCAGCAGACGGGCUCUCGGGAGUCGUGGGUUCCAGGCAGCUGUGUGGACCCAGGGACAGACAUUCAAAGGGACGCCAGCCAUCCUUAGUGACAGGGGCCCCAACUUAGCA; value = 1.38
Strand = UGUGUGACAUUUAUAGGGAAUGUUGGCUCUGAACAAACUUUUGAAAACUUGGUUGACAAAAUUUUGGAUCAACUGAAAAAAGCAUGACUUUUGAAAUCUCUGAAUGCCUU; value = 5.6
Strand = GCUGUCUGUUGGGGGUUACAAGCAAGGUGGUAAACGUUAAGCUAGUAUCAUAGUCAUUUAAACCUGGAUAGAUUGUAACCAUUUUCCCUUCACUCUGACACUGUCUUAUU; value = 0.396
Strand = UGUGAUUGAGGGGUGUUCUGCCCUGCCUCCACUGUCACAGCCUUUAAUAAAGAUGUGAAUCUUGAAAGCCUGAUGCUCCAAUCACAGACUCUGCUCAGCAUCCCCAGAGG; value = 0.725
Strand = UGCAUCGGAGGCCAGGACCCGGAUCAUUCACUGUGAUACCCUGCCCUCCAGAGGGUGCGCUCAGAGACACGGGCAAGCAUGCCUCUUCCCUUCCCUGGAGAGAAAGUGUG; value = 0.732
Strand = CGUGGCUGCACGGAGUCACAAGCCUCUUGACAUGUUAGCCAUUUCCAGCGUCCUAACUGACUGUAAUCGACCGGGUUUUCAUCCCCUGUCCCAUCCCCUGAGCAUCUUUU; value = 0.402

Block 4 — method: competition protein-binding microarray; molecule type: double-stranded DNA, one strand shown; matrix: in vitro; concentration: 2 µM; with: Pho4 competitor, 0.05 µM; reading: higher = stronger binding; quantity: fluorescence intensity; all sequences stand within: … GTCTTGATTCGCTTGACGCTGCTG
Target: Centromere-binding protein 1, full length, His-tagged (CBF1, Saccharomyces cerevisiae, UniProt P17106, residues 1-351)
UniProt P17106, sequence (whole entry, looked up): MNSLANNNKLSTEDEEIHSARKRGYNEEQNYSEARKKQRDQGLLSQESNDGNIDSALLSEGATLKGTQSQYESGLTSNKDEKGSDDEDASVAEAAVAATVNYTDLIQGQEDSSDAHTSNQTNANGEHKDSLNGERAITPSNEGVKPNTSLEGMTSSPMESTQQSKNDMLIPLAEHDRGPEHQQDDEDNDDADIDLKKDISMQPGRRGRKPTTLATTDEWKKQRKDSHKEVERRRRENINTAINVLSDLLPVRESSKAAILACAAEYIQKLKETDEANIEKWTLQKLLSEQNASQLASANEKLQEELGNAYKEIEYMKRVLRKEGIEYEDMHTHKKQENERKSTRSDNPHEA
Notes: whole 60-bp probe, lowest competitor level
Strand = TGCGCAACAACTTGAGCGGTGGGTGTATGTCTAGAA; value = 66.4 a.u.
Strand = TTGGCGCACTTACAGGACCTGACGACTTTGCCCCCG; value = 60.3 a.u.
Strand = CGGGGTTAAGTTTGGCACGTGGGTGGCTTGCAGCAG; value = 978 a.u.
Strand = CTTCTGTAAATTTGAACGGTGGGTGGACGCGCCCCG; value = 80.7 a.u.
Strand = ACCTTGTTCCAATTGTTCGTGATGGATTTCAACGGA; value = 75.8 a.u.
Strand = GTGAACTACAACAAAAAGAGAAGGCTGGTAAGGGCA; value = 69.4 a.u.
Strand = CTTTCCCGATCTTGTACGGTGGGTGTAGCACATTTG; value = 65.3 a.u.
Strand = GTTATTCTCTAGTGTTTCGTGCTAAAATAACCGAGT; value = 100 a.u.
Strand = CTTCTGTAAATTTGTCACCGTACTTGACGCGCCCCG; value = 87.4 a.u.
Strand = TTGTCTGTGCATTGGCATGTGCAAGCATTCGATGAA; value = 101 a.u.
Strand = TCAATTCTCCAGTACGGCGTGGGTACAGAACATGGC; value = 72.1 a.u.
Strand = CATACCCAACCTTGGGCTGTGGGTGAAGATATTTGT; value = 59.7 a.u.
Strand = GCAACCAGGGGCCACCACGTGAAGAACTGAGCAATC; value = 560 a.u.
Strand = CGGGGTTAAGTTTGAACGGTGGGTGGCTTGCAGCAG; value = 63.6 a.u.
Strand = ACAGAATATCCCGACCACATGGCAAGACCAAGAAAG; value = 151 a.u.
Strand = GCCTAAGGGCCTGCCATCGTGCTTTCTCAAACTATT; value = 63.3 a.u.
Strand = CTAACGAAGGTTTGACTGGTGGGTGACAAGCCAAGT; value = 78.8 a.u.
Strand = GTCTTGTCTCATTGCGGGGTGGGTGTCCCCACTTCA; value = 75 a.u.
Strand = GATCCTGAGAGGTCCCATGTGCTTTCCAATAACAGT; value = 131 a.u.
Strand = AAAGCGGTAATTTGTCACTCAACTTCACATATCTAT; value = 98.9 a.u.
Strand = CGTCCTAGTGATTGTCACCCGACTTCCATGAGGAAG; value = 78.6 a.u.
Strand = CCCCTGTGCGGCTACGTCGTGCCGACCCACCATTTG; value = 61.9 a.u.

Excerpt of the above (block 4):
Strand = CTTTCCCGATCTTGTACGGTGGGTGTAGCACATTTG; value = 65.3 a.u.
Strand = GTTATTCTCTAGTGTTTCGTGCTAAAATAACCGAGT; value = 100 a.u.
Strand = GCAACCAGGGGCCACCACGTGAAGAACTGAGCAATC; value = 560 a.u.
Strand = ACAGAATATCCCGACCACATGGCAAGACCAAGAAAG; value = 151 a.u.
Strand = TTGGCGCACTTACAGGACCTGACGACTTTGCCCCCG; value = 60.3 a.u.
Strand = CGTCCTAGTGATTGTCACCCGACTTCCATGAGGAAG; value = 78.6 a.u.
